# Measured values pooled from the literature.
# Parts stem from different laboratories: compare values within a part only.

# Block 1 — technique: protein-binding microarray; form: double-stranded DNA, one strand shown; matrix: in vitro; tested at: 0.8 µM; notes: whole 60-bp probe, no competitor; direction: higher = stronger binding; shared flanks, not repeated: … GTCTTGATTCGCTTGACGCTGCTG
# Target: Centromere-binding protein 1, full length, N-terminal tag (CBF1, Saccharomyces cerevisiae, UniProt P17106, residues 1-351)
# Sequence of UniProt P17106 (whole entry, looked up): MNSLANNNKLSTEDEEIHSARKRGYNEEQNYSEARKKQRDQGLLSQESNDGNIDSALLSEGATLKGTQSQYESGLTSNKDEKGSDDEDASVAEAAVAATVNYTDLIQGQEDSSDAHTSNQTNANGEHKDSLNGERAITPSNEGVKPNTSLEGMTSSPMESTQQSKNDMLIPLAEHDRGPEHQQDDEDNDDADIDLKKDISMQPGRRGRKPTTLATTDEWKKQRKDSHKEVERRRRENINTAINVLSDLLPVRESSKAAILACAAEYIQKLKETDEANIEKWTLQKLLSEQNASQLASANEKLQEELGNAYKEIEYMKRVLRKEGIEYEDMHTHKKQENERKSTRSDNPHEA
Sequence,fluorescence intensity [a.u.]
GAATAGAATAAACGAAAGGTGACAGAAATAGAATAG,551
GAACCTTTCACTTCCCACGTTTAGCGGGACAGGTAG,534
CTATGCGTTGCTGGTGAGGTGGCGTGGACGGTTTTC,885
CTATCTCCCTCCTCCCACGTTATTTGTCTAGCATTC,575
TGTACGAAGCTATCACCGCTGATTATAGTAGTTAGG,544
GAAGTTATCATTTACCACGAGGTTGACTGTCTTTAG,625
GAAACATATAAAACACACGATGATTGATTGATTTAG,508
GAAAGTTTTTCATATAAGATCACGTTGTTTATATAG,4420
CTAAGAATTAAGTAACACGCAACAACTGCATTCTTC,537
CTATAGTTTAGTTATGGCGTGACATAATAACGGTTC,1430
CTATTTCTTAACGGTGACGAAGGATCACCATACTTC,587
GAAGATGGTATTTAACACATGAAAATCTTCATATAG,533
CTATGCTCGGTCGACAACGTGTATGTTTTTGCCTTC,600
GAAAAGGATTTCATAAACGTGTGGTTCACGATATAG,530
CTAGCTTTTGTACATATCGTGTCATACTGCGACTTC,608
GAAAAGCAACCACACCACATGAGCTCACAACCGTAG,544
CTATCCAAAACACATCACCAGATATAGGACTGATTC,537
CTAAAGCATCGCCGTGATGTGTTATATATTGCATTC,570

# Block 2 — technique: RNA Bind-n-Seq; form: RNA; matrix: in vitro; tested at: 200 nM; notes: whole 134-nt RNA, ends assumed; together with: 150 mM LiCl; relative to: input library; direction: higher = stronger binding; library: 7-deaza-guanosine replaces G
# Target: Ras GTPase-activating protein-binding protein 1, full length (G3BP1, Homo sapiens, UniProt Q13283)
# Sequence of UniProt Q13283 (whole entry, looked up): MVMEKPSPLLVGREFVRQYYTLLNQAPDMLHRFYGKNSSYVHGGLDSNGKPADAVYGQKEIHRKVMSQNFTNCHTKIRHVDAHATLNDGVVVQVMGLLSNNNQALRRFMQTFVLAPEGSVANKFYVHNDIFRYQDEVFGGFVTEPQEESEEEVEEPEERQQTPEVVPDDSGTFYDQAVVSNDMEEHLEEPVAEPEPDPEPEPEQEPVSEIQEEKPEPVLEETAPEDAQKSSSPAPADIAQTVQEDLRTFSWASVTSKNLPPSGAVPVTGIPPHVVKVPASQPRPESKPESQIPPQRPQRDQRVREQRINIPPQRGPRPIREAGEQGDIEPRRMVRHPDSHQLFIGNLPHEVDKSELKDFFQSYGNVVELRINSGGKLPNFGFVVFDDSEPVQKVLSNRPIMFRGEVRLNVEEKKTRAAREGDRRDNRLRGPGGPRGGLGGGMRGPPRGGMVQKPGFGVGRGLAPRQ
# Shared flanks, not repeated: GGGAGUUCUACAGUCCGACGAUC … UGGAAUUCUCGGGUGUCAAGG
Sequence,log2 enrichment
AAGUCCUGUGCUACACAUCGUAUGUACCGAAUCGGGUUUUUUUGGGAGGGAAAGGGAAAGUAUUAUGUUACGCCGUUCGGAUCUGCACUU,0.181
UAACUUUAGAGGAGGAUCUGAUGGAUAUGGCAGUGGACGUGGAUUUGGGGAUGGCUAUAAUGGGUAUGGAGGAGGACCUGGAGGUCGCAA,0.164
AGUCCUGUGCUACACAUCGUAUGUACCGAAUCGGGGAAAAGGAAAAGGGGAAAAGGGGAAAGUAUUAUGUUACGCCGUUCGGAUCUGCAC,0.263
UGGGAGGUGCAUUUUGUUUAUUUUUUUAGCUCAUUUCCAGGGGUGGGAAUUUUUUUUUAAUAUGUGUCAUGAAUAAAGUUGUUUUUGAAA,-0.164
UGGCCCCGGUGGCAUGCGGGGAGGAAGAGGUGGCCUCAUGGAUCGUGGUGGUCCCGGUGGAAUGUUCAGAGGUGGCCGUGGUGGAGACAG,0.205
CCUCAAGUCCUGUGCUACACAUCGUAUGUACCGAAUCGGAGGGGAGGGAGGGGAAAGUAUUAUGUUACGCCGUUCGGAUCUGCACUUCCA,0.0839
CAAGUCCUGUGCUACACAUCGUAUGUACCGAAUCGGUUUGGGGUUUGGUUUGGGGAAAGUAUUAUGUUACGCCGUUCGGAUCUGCACUUC,-0.703
UCCUGUGCUACACAUCGUAUGUACCGAAUCGGGUUUUUUUGGGAAAAAAAGGGUUUGGGAAAGUAUUAUGUUACGCCGUUCGGAUCUGCA,-2.17
UGGGAGGUGGAUUUUGUUUAUUUUUUUAGCUCAUUUCCAGGGGUGGGAAUUUUUUUUUAAUAUGUGUCAUUAAUAAAGUUGUUUUUGAAA,-0.286
CAAGUCCUGUGCUACACAUCGUAUGUACCGAAUCGGUUUUUUUGGUGGAAAAAGGAAAGUAUUAUGUUACGCCGUUCGGAUCUGCACUUC,-0.833
CCUCAAGUCCUGUGCUACACAUCGUAUGUACCGAAUCGGUGGGGUGGGGUGGGAAAGUAUUAUGUUACGCCGUUCGGAUCUGCACUUCCA,-0.31

# Block 3 — technique: RNAcompete; form: RNA; matrix: in vitro; tested at: 20 nM; notes: 7-mer, probes averaged, single round; relative to: mean of 7-mers; direction: higher = stronger binding
# Target: PABPC1L2, full length, GST fusion (mouse, UniProt A0ABA7IW68)
# Construct (chain): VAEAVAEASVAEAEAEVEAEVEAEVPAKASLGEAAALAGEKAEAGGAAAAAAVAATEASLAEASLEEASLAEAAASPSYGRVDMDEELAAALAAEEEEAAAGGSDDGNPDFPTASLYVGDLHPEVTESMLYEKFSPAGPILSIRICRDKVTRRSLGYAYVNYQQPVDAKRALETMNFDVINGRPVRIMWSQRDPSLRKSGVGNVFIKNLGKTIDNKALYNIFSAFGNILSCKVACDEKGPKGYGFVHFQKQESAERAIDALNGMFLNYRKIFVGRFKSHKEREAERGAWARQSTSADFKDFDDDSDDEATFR
Sequence,7-mer Z-score
UAUUGGU,-0.159
ACGUUAC,-0.195
UGCCGGA,0.0388
CCAACGG,-0.0681
GGCUAUA,0.225
CGGUCGC,-0.235
UUCAUAC,-0.275
AUAAAAU,4.86
AGUAGAA,0.369
UCACAAG,-0.104
UGAUCCA,-0.0863
CCGACGU,-0.19
UAUCGUC,-0.304
AUAUACG,-0.0174
AUUCUCU,-0.293
UGUUCAU,-0.36
AAUGGGG,0.541
UACUAUU,-0.266
UGUAGUC,-0.322
UACCCAU,-0.28
AAAGCUC,0.338
UUAGUCC,-0.434

# Block 4 — technique: RNA Bind-n-Seq; form: RNA; matrix: in vitro; tested at: 365 nM; relative to: no-protein control; direction: higher = stronger binding
# Target: RNA binding protein fox-1 homolog 2, RRM domain, GST-SBP tag (RBFOX2, Homo sapiens, UniProt O43251-10, residues 100-194)
# Notes: natural RNA segment, single round, ends assumed
# Shared flanks, not repeated: GGGAGUUCUACAGUCCGACGAUC … UGGAAUUCUCGGGUGCCAA
# Target sequence (chain): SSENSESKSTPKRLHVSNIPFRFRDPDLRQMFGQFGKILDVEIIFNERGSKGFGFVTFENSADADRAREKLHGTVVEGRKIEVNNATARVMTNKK
Sequence,RBNS enrichment (R)
UCUAGUUGUGUUGAAGCCAAGUGCAGUUGUGGAUGUUGCUGGGGUAAUAAAGGCAAGCGGGCUCCAGAGCCUCUCUGGUGGCGGCCAAGCCACACUCCCUUAACUGGGAA,0.533
ACCGGCUCACUGUCUGCAGCACCUUCUCUUUCUUUCUCAUGCAUUUCAAAGCCAGCUAUCUCCUGCACUAGCUGUCUGUGGCCUGUAGAACAAGCUUUUUUCACCAAGCU,0.975
GAAACUGAGUGAGUCGGAUUCCUCCAGGCCAGGUCUUCCCAGAACAGAGUCAGCCUCUAGUAGACCCUGCUCUUUUGCCCCUGGGGCGGGGAGGGUUGGCAGUGGUGGGG,0.463
AGCCUCAAACUCCAAACACCAUAGGUAGGACACGAAGCUUAUCUGUGAUUCAAAACAAAGGAGAUACUGCAGUGGGAAUUGUGACCUGAGUGACUCUCUGUCAGAACAAA,0.724
GGCUAUAACAGAUGCUUUUAAAGCAAAUGAUACCAUUUAAGAAAUUCAGAGAGGCAUUACUUAGAAUGCUGACAUAAAGACAUGACCUUGAAGAAAAGAAUAGAAUUCUC,1.39
UUUGACUCCCUGACUUCAAGCCAGGGUUGUGCCUUACUGUCCCUUUUCUGGGCCUCAUUCUGCCAAAGCUGGACCAAGGUUCCAUCUUUCUAAGCUCCCUAGCUCAGGCC,0.258
GUUUUACAAAUUUAAUUUUGCAGAUUAUUUUAGUCUGUCAUCCAGAAAAUGUGUCAGCAUGCAUAGUGCUAAGAAAGCAAGCCAAUUUGGAAACUUAGGUUAGUGACAAA,1.78
CAGAGCUAGGGCCCUACCUGAGCAAGUCGGCUGUGGCCCGGGAGGCAGCGUGACUCCUGCUGUCCUCCAGCCUUUCAGAUGAGAUCCUAUUCCAGCCAAAUGCAGGGAAA,0.298
AUAUUUCCAAGACCCUACAACUCCAGCCUUGCCCUAUGACAUCAUCAAGGAUCUCCACAGAGGUGACUGUUGCCUAUCCACAACGACACUAGUGAUCACUCUUCAGAGAG,0.394
UGUGAAGAAUCAACUCUAGGGUUACCUGUGAAGCCACGCGGUGGUGUUCGAAGCUGUCUGGUAAUGCCCCCAUCUCUCCCCGGGUCCAGUGGAUUUUUUUAACUAUUAUU,0.658
CCUGGGAGGUCUGAGCAGAGGGAGGCCCCCAAGAGUGCCAUUGACCAAGAGACAGCAGACAGCCUGCCUCCUGGGGCGUGCCGGCACCUGCUUCAGCUACUGCCUCCUGU,0.615
CGUGCCUAUUUAUCCCUCGUUCCUGAACACUACUAGUACCGUAGGGCUGGACCACCAUCUGUACCGUUGCGUCCACAGUGUGCAUUCUGAGGUAUCACUCAGGGUGCCAA,0.259

# Block 5 — technique: universal PBM; form: double-stranded DNA, one strand shown; matrix: in vitro; tested at: not given; direction: higher = stronger binding
# Target: Sal-like protein 4, full length isoform B (SALL4, Homo sapiens, UniProt Q9UJQ4-2, residues 1-616)
# Notes: 8-mer, flanks averaged, mean of replicates
# Target sequence (chain): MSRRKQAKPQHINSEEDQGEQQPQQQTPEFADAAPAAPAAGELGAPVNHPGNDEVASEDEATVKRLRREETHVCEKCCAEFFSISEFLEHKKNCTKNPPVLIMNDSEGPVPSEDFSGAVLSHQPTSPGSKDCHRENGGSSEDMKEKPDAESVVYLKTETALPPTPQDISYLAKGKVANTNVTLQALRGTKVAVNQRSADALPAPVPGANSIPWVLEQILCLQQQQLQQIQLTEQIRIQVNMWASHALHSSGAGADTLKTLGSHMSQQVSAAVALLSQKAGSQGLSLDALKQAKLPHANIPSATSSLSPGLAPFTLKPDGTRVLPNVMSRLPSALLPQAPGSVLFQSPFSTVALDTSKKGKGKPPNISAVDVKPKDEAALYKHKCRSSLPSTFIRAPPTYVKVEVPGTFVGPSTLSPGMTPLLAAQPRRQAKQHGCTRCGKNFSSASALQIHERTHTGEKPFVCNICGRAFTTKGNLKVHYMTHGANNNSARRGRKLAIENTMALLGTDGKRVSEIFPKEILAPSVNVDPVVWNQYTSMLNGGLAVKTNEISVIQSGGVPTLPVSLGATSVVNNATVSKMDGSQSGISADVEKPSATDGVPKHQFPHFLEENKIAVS
Sequence,E-score
ACTTTGCC,-0.172
ATTCTTGC,0.0898
ACTCGAAT,0.0339
CCCCCAGC,-0.276
AATCTAAA,0.194
CGAACCAG,-0.0834
GTGTACCA,0.047
ACTGAATC,-0.067
AGGCTACC,-0.219
CAATTGCA,0.16
ATGCATCG,0.0356
GAGCAAAA,0.108
ACAGGGTC,-0.251
AAAGGACA,0.0132
CGCCAACA,-0.0549
CTCACACA,-0.0151
CCTGAAAA,0.12
ACCTAGAA,0.136
TTATCCAA,0.3
ATGAATGC,0.248

# Block 6 — technique: protein binding microarray; form: double-stranded DNA, one strand shown; matrix: in vitro; tested at: not given; relative to: not given; direction: higher = stronger binding
# Target: Histone acetyltransferase KAT6A, both winged helices, GST fusion (KAT6A, Homo sapiens, UniProt Q92794, residues 1-181)
# Notes: 8-mer, flanks averaged, mean of 2 arrays, mostly near background
# Target sequence (chain): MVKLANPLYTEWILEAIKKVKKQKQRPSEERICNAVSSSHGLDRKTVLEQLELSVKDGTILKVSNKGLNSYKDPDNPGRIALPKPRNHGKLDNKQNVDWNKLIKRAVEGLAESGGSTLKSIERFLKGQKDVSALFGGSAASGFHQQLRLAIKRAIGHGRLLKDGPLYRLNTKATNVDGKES
Sequence,E-score
CCTAATAG,-0.108
AGCGATGA,0.0412
GGACCCAA,-0.0684
CTTCCCGC,0.225
CGCACGCA,0.208
CGCAACTC,0.114
GCGAGGGA,0.0268
ATCCATTG,-0.0784
CGACCACC,0.0221
CCGCGCGG,0.419
GAAGCAGC,-0.0729
ACAGTCCC,0.0415
AAAATGTC,0.0656
ACTATTGG,-0.129
AGTTGACA,-0.136
AAACCTGC,-0.163
ATAATTAC,-0.0473
AACGCGAC,0.168
AGAAGTCA,-0.0244
GCTACAAA,-0.0981
